Measured values pooled from the literature.
Protocols differ between the studies behind these lines.

CC1(C)CC[C@@]2(CO)C(=C3C=C[C@@H]4[C@@]5(C)CC[C@H](O)[C@@](C)(CO)[C@@H]5CC[C@@]4(C)[C@]3(C)C[C@@H]2O)C1 — time of first detection (UHPLC-MS/MS; mouse, plasma; oral, 50 mg/kg of saikosaponin a): 2 h
O=C(CCCCC[N+]#[C][99Tc-5]([C]#[N+]CCCCCC(=O)N[C@H]1C(O)O[C@H](CO)[C@@H](O)[C@@H]1O)([C]#[N+]CCCCCC(=O)N[C@H]1C(O)O[C@H](CO)[C@@H](O)[C@@H]1O)([C]#[N+]CCCCCC(=O)N[C@H]1C(O)O[C@H](CO)[C@@H](O)[C@@H]1O)([C]#[N+]CCCCCC(=O)N[C@H]1C(O)O[C@H](CO)[C@@H](O)[C@@H]1O)[C]#[N+]CCCCCC(=O)N[C@H]1C(O)O[C@H](CO)[C@@H](O)[C@@H]1O)N[C@H]1C(O)O[C@H](CO)[C@@H](O)[C@@H]1O (stereo partly drawn) — time to maximum tumour uptake (SPECT; nude mouse with U87 MG xenograft): < 30 min
CCc1nc(N)nc(N)c1C#C[C@H](C)c1cc(-c2cc(C)nc(C)c2)ccc1Cl — time above MIC in plasma (mouse, plasma; dose not given): ~10 h
Cc1ccc(C2=C(c3ccc([18F])cc3)C(=O)OC2(C)C)cc1 — time of maximal tumour uptake (dynamic PET/CT; female athymic nude mouse, SK-OV-3 xenograft; intraperitoneal, 1.5 h scan): ~1 h
CN1C(=CC2=C(O)C(=CC3=[N+](CCC[N+](C)(C)C)c4ccc(F)cc4C3(C)C)C2=O)C(C)(C)c2ccccc21 — time to peak signal-to-background ratio (mouse, duodenum and intestines): 1 to 2 h
O=c1[nH]c2ccccc2n1CCCCCN1CCN(c2ccc(F)cc2)CC1 — time to undetectable level (C57BL/6 mouse, plasma and brain; subcutaneous, 5 mg/kg): 240 min
CC[C@H](C)[C@H](NC(=O)[C@H](Cc1ccccc1)NC(=O)[C@H](CCC(=O)O)NC(=O)[C@H](CCCCN)NC(=O)[C@H](C)NC(=O)[C@H](C)NC(=O)[C@H](CCC(N)=O)NC(=O)CNC(=O)[C@H](CCC(=O)O)NC(=O)[C@H](CC(C)C)NC(=O)[C@H](Cc1ccc(O)cc1)NC(=O)[C@H](CO)NC(=O)[C@H](CO)NC(=O)[C@@H](NC(=O)[C@H](CC(=O)O)NC(=O)[C@H](CO)NC(=O)[C@@H](NC(=O)[C@H](Cc1ccccc1)NC(=O)[C@@H](NC(=O)CNC(=O)[C@@H](N)CCC(=O)O)[C@@H](C)O)[C@@H](C)O)C(C)C)C(=O)N[C@@H](C)C(=O)N[C@@H](Cc1c[nH]c2ccccc12)C(=O)N[C@@H](CC(C)C)C(=O)N[C@H](C(=O)N[C@@H](CCCCN)C(=O)NCC(=O)N[C@@H](CCCNC(=N)N)C(N)=O)C(C)C — time to undetectable (mouse, plasma; intraperitoneal, 500 µg): ≤ 30 min
CN(C)c1ccc2c(-c3cc(C(=O)N4CCN(CCCOc5ccc6nccc(C(=O)NCC(=O)N7CC(F)(F)C[C@H]7C#N)c6c5)CC4)ccc3C(=O)[O-])c3ccc(=[N+](C)C)cc-3oc2c1 — time to baseline signal (intravital imaging; mouse B16-F10-GFP tumour, tumour tissue; intravenous, 1 µM, 100 µL): 24 h
COC(=O)c1ccc(-c2cn(Cc3cc(Cl)ccc3O[11CH3])nn2)cc1 — time to homogeneous brain distribution (PET/CT; C57BL/6 mouse, brain): 5 min

Excerpt of the above:
CN1C(=CC2=C(O)C(=CC3=[N+](CCC[N+](C)(C)C)c4ccc(F)cc4C3(C)C)C2=O)C(C)(C)c2ccccc21 — time to peak signal-to-background ratio (mouse, duodenum and intestines): 1 to 2 h
